Assay results pooled from the literature.
A part holds a random share of what one study measured. Positions count from the first letter of the parent shown.
Sequence of UniProt Q13131 (whole entry, looked up): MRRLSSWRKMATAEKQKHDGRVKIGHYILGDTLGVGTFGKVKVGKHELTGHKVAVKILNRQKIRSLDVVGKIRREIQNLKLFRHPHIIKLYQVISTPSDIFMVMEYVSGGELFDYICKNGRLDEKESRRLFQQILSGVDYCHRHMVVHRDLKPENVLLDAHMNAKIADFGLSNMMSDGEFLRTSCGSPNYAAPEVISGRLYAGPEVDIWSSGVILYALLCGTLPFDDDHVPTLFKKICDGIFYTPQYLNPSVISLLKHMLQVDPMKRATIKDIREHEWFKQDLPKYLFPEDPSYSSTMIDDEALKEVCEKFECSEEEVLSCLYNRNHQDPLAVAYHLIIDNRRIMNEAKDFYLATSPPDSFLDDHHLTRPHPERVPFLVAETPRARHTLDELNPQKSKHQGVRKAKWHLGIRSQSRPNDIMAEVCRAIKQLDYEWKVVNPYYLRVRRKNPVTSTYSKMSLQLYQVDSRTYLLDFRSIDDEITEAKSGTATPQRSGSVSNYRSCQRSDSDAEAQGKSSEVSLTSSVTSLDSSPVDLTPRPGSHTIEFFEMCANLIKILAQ
Sequence of UniProt Q9P0L2 (whole entry, looked up): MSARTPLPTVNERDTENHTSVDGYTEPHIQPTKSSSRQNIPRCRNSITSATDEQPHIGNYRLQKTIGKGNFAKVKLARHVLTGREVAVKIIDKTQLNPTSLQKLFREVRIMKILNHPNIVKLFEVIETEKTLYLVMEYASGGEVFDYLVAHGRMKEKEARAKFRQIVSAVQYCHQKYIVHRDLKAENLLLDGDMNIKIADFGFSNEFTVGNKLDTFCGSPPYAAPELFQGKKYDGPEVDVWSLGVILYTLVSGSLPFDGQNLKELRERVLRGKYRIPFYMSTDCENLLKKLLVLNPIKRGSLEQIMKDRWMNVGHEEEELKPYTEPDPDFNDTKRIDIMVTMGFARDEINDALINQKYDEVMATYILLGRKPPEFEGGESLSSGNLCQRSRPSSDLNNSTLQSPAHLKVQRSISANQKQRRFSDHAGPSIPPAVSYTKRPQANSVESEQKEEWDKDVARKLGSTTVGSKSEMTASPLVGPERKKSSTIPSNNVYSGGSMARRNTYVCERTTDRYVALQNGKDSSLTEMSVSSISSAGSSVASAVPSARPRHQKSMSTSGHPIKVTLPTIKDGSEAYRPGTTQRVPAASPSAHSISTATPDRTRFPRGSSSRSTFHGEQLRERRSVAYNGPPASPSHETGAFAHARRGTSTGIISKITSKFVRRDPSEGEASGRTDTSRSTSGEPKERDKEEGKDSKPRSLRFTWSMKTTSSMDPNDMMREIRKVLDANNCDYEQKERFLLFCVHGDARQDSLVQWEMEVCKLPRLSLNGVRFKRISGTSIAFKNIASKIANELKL
Sequence of UniProt Q15835 (whole entry, looked up): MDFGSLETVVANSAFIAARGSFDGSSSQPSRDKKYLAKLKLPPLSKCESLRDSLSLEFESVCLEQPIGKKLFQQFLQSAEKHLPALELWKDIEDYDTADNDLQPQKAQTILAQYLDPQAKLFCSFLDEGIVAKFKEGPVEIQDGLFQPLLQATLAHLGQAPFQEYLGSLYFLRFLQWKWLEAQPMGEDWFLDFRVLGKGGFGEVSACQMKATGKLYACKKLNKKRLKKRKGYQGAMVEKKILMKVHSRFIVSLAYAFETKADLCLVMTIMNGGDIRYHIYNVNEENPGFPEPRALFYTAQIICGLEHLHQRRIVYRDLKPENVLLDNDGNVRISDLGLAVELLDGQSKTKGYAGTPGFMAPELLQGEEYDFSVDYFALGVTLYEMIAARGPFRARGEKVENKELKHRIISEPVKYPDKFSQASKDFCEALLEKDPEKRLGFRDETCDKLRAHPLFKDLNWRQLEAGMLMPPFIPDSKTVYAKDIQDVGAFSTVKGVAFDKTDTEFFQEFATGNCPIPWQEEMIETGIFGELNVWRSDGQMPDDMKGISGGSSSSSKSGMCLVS
Sequence of UniProt Q05655 (whole entry, looked up): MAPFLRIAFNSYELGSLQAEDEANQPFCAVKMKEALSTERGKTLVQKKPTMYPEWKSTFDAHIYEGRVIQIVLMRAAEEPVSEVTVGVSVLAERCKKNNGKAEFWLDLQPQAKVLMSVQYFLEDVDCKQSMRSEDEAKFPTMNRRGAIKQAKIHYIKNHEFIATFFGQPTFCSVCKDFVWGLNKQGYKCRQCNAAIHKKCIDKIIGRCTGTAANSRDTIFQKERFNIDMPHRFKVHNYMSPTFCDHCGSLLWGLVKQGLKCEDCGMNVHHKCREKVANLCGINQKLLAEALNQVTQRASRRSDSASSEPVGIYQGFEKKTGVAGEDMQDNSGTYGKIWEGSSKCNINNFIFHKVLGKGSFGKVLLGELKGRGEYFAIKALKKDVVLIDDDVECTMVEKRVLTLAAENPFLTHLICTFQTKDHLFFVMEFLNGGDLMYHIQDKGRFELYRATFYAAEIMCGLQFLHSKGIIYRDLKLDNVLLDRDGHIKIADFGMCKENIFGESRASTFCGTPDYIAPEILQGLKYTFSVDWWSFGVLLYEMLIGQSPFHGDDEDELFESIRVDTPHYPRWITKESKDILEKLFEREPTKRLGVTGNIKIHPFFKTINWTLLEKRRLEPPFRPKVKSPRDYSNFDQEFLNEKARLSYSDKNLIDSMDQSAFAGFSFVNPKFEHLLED

Block 1
Target: CCNF, cyclin fold, Cln2 fusion (human)
Method: yeast growth competition, sequencing
Matrix: yeast
Setting: strong parent motif
Baseline: not given
Reading: higher = stronger binding
Quantity: normalised enrichment score
Parent: GMNC docking peptide (human); KNAKRNLSSEFAN
Substitution = KNAKRNLSSDFAN [E10D]; value = 0.557
Substitution = KNAKRNLSSEHAN [F11H]; value = 0.212
Substitution = KNAKRNLSSYFAN [E10Y]; value = 0.838
Substitution = KNAKRNMSSEFAN [L7M]; value = 0.661
Substitution = KNAKRNLSSEGAN [F11G]; value = 0.308
Substitution = KNAPRNLSSEFAN [K4P]; value = 0.165
Substitution = KNAKRNLSSWFAN [E10W]; value = 1.61
Substitution = KNAKRNQSSEFAN [L7Q]; value = 0.31

Block 2
Target: Insulin receptor (INSR, Homo sapiens, UniProt P06213)
Sequence of UniProt P06213 (whole entry, looked up): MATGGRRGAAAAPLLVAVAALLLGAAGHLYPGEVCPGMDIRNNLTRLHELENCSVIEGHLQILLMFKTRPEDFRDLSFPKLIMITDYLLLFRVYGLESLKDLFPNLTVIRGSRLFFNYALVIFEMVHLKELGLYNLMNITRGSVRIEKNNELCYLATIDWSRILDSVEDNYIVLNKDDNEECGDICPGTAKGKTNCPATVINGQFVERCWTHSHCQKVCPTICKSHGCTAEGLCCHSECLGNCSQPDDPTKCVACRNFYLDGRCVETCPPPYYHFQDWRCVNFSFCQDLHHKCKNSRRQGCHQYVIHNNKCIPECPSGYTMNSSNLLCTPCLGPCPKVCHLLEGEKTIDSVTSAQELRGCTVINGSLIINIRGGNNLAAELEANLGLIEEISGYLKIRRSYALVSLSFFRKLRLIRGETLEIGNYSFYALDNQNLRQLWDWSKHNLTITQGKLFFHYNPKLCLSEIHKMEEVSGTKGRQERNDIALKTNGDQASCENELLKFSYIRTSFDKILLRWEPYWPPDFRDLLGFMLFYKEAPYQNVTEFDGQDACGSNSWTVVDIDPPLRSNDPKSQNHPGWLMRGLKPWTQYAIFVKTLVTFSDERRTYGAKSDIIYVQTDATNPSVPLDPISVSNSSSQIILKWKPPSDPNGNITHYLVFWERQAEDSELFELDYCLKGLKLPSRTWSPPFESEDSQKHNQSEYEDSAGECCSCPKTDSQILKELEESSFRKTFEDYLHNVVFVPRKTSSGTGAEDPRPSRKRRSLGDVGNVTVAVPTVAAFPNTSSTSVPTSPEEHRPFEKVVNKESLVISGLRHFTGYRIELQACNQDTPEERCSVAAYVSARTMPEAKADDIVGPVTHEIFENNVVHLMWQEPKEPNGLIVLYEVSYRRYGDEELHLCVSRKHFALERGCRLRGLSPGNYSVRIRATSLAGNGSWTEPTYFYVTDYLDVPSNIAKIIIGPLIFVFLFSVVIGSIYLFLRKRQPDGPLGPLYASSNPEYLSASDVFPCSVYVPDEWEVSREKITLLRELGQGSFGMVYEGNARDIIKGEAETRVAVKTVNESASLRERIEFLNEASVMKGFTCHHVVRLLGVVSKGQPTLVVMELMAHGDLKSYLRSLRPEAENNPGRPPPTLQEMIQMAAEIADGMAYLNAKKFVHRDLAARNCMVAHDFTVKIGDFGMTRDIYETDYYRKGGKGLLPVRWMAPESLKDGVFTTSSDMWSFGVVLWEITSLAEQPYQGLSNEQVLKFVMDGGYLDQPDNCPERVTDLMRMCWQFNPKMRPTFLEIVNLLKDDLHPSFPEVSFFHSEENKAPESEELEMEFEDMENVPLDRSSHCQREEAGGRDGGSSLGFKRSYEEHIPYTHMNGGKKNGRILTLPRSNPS
Observed: enzyme activity
Action: inhibitor
Tested at: 0.5 µM
Baseline: control
Quantity: remaining activity
SMILES = CNC(=O)c1cc(Oc2ccc(NC(=O)Nc3ccc(Cl)c(C(F)(F)F)c3)cc2)ccn1; value = 106%
SMILES = COc1cc2ncnc(Nc3ccc(Oc4ccccc4)cc3)c2cc1OC; value = 88.8%
SMILES = CN(C)c1ccc(C=C2C(=O)Nc3ccccc32)cc1; value = 93.4%
SMILES = O=C(O)c1ccc2c3c1cccc3c(=O)n1c3ccccc3nc21; value = 91.5%
SMILES = Cc1cccc(-c2[nH]c(C(C)(C)C)nc2-c2ccc3c(c2)OCO3)n1; value = 87.6%
SMILES = Nc1ccc2ncnc(NCCc3ccc(Oc4ccccc4)cc3)c2c1; value = 103%
SMILES = Cc1ccc(Nc2nccc(N(C)c3ccc4c(C)n(C)nc4c3)n2)cc1S(N)(=O)=O; value = 107%
SMILES = COc1cc2ncnc(Nc3ccc(F)c(Cl)c3)c2cc1OCCCN1CCOCC1; value = 107%
SMILES = O=C(Nc1cccc(Nc2cc(Nc3cccc(C(F)(F)F)c3)ncn2)c1)C1CC1; value = 103%
SMILES = COc1ccc(OC)c2c(=S)c3ccccc3[nH]c12; value = 102%
SMILES = COc1ccc(C(=O)Nc2sc3c(c2C(N)=O)CCCC3)cc1OC; value = 93.2%
SMILES = Cc1ccc(NC(=O)c2ccc(CN3CCN(C)CC3)cc2)cc1Nc1nc(-c2cccnc2)cs1; value = 99%
SMILES = Cn1sc(=O)n(Cc2ccccc2)c1=O; value = 93.7%
SMILES = O=c1c2ccccc2[nH]c(=S)n1CCN1CCC(=C(c2ccc(F)cc2)c2ccc(F)cc2)CC1; value = 94.3%
SMILES = C#Cc1cccc(Nc2ncnc3cc(OCCOC)c(OCCOC)cc23)c1; value = 102%

Block 3
Structure (SMILES): CO[C@@H](C)c1c(Nc2ccc([C@H](N(C)C(=O)C3CCS(=O)(=O)CC3)C(F)(F)F)cc2)cnc2cc(Cl)nn12
Observed: cell-free assay
Method: competition with immobilised ligand
Tested at: 1 µM
Quantity: remaining binding
target = Protein kinase C delta type (PRKCD, Homo sapiens, UniProt Q05655); value = 79%
target = 5'-AMP-activated protein kinase catalytic subunit alpha-1 (PRKAA1, Homo sapiens, UniProt Q13131); value = 99%
target = Rhodopsin kinase GRK1 (GRK1, Homo sapiens, UniProt Q15835); value = 82%
target = Hepatocyte growth factor receptor (MET, Homo sapiens, UniProt P08581); value = 100%
target = Serine/threonine-protein kinase MARK1 (MARK1, Homo sapiens, UniProt Q9P0L2); value = 69%

Block 4
Target: Sal-like protein 4, full length isoform A (SALL4, Homo sapiens, UniProt Q9UJQ4, residues 1-1053)
Sequence of UniProt Q9UJQ4 (whole entry, looked up): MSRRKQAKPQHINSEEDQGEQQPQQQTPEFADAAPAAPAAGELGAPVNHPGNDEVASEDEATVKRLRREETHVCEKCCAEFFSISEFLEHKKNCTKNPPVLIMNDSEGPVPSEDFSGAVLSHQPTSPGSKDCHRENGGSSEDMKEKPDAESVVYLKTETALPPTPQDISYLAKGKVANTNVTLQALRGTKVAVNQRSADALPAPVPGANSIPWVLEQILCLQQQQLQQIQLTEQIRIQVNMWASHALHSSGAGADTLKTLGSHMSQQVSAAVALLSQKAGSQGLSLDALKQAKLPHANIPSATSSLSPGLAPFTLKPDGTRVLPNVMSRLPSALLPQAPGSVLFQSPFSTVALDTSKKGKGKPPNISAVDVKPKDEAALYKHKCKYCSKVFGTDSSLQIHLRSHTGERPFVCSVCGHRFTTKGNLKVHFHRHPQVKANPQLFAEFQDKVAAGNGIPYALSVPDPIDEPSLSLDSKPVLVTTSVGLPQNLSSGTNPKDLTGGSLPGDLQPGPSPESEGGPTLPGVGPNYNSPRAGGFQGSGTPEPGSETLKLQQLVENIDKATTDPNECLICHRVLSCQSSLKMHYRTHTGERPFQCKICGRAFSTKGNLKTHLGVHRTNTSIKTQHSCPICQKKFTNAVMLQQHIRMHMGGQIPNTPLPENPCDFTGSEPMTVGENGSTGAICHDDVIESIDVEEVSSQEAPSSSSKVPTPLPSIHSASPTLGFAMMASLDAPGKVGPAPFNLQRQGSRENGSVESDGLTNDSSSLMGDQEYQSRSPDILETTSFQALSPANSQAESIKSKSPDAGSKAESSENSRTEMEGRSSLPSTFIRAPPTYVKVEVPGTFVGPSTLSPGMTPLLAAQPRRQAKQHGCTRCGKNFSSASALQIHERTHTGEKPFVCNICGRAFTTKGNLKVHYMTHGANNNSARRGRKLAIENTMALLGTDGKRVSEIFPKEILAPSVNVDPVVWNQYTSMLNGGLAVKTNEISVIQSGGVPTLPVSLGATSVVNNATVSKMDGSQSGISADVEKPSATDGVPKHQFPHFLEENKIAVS
Method: universal PBM
Form: double-stranded DNA, one strand shown
Matrix: in vitro
Tested at: 600 nM
Setting: 8-mer, flanks averaged, mean of replicates
Reading: higher = stronger binding
Quantity: E-score
Strand = GGATCTAC; value = -0.0134
Strand = AACTCGCA; value = 0.0446
Strand = ATCGCCAT; value = 0.0584
Strand = CTCAGAAA; value = 0.0774
Strand = CCTGAGTA; value = 0.00961
Strand = AGCTAAAT; value = 0.0652
Strand = AATCATAG; value = 0.327
Strand = ATCTGAAA; value = 0.203

Some of these lines once more (block 4):
Strand = ATCTGAAA; value = 0.203
Strand = AATCATAG; value = 0.327
Strand = AGCTAAAT; value = 0.0652
